Published values pooled from the literature.
Numbered parts are unrelated; each lists some results of a single study. Substitutions count along the parent as printed.

Study 1
Target: Histone acetyltransferase KAT6A, winged helix 1, GST fusion (KAT6A, Homo sapiens, UniProt Q92794, residues 1-85)
Method: protein binding microarray
Molecule type: double-stranded DNA, one strand shown
Matrix: in vitro
Tested at: not given
Setting: 8-mer, flanks averaged, mean of 2 arrays, mostly near background
Reference: not given
Direction: higher = stronger binding
Endpoint: E-score
Residues (chain): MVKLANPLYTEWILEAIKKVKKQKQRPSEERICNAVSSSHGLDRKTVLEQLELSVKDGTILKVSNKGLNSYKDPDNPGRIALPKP
AGGCGCGA: 0.294
ATTGTAAA: -0.237
CGCGCTGA: 0.38
AGGTTGAT: -0.132
GCACCGGA: 0.288
CCCTGTAC: -0.101
GTACTACA: -0.135
GGCGACCC: 0.242
CTGCAACC: -0.0786
AAAATAAG: -0.181
ACTAAAGA: -0.0132
CATAGCTA: -0.0244
CAGTGACC: -0.0851
ATGGCTAC: -0.153
CAAGCGAA: -0.0806
TACAAGGA: -0.176
AATGAGTG: -0.22
CAACAGTC: -0.125
CGAGTTTA: -0.0929
GCGAGCAC: 0.0864
ACAGGCTC: -0.0314
AACGGCCA: 0.255
CGGGTGCC: 0.375
CCACGAAA: -0.174
ATAGATCC: 0.0119

Study 2
Target: ABI1, truncated, D143A, DHFR fusion (Arabidopsis thaliana)
Method: DHFR PCA, deep sequencing
Matrix: yeast
Setting: methotrexate growth selection, single substitutions
Added: (+)-ABA 200 µM
Reference: wild-type fitted maximum
Direction: higher = stronger binding
Endpoint: relative binding score
Parent: PYL1, truncated, DHFR fusion (Arabidopsis thaliana); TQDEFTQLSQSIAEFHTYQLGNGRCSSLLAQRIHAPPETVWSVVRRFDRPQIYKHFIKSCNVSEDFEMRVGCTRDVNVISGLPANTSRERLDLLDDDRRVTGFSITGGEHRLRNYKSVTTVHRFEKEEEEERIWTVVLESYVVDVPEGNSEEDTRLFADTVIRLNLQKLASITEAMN
N22A: 100%
N22W: 93.2%
L28W: 78.1%
N22K: 97.4%
A13M: 94.6%
K116S: 104%
H110S: 54.9%
E4A: 92.9%
Y141S: 4.8%
P83W: 13.4%
S9N: 101%
M176W: 96%
L94C: 79.9%
L93G: 32.2%

Study 3
Target: Phosphate system positive regulatory protein PHO4, full length, GST-tagged (PHO4, Saccharomyces cerevisiae, UniProt P07270, residues 1-312)
Method: competition protein-binding microarray
Molecule type: double-stranded DNA, one strand shown
Matrix: in vitro
Tested at: 2 µM
Setting: whole 60-bp probe, lowest competitor level
Added: Cbf1 competitor, 0.05 µM
Direction: higher = stronger binding
Endpoint: fluorescence intensity
Construct (chain): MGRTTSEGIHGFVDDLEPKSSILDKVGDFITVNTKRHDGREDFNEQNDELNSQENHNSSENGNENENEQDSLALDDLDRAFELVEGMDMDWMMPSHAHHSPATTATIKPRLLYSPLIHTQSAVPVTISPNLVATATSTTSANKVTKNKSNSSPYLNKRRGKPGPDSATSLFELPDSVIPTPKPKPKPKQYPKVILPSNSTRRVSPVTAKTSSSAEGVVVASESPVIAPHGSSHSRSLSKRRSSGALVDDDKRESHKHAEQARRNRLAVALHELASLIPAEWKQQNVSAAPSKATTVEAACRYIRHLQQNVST
TTTCCAACCTTCTGGCACGATAGTCTATGTCAAAATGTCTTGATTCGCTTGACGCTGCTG: 6600 a.u.
CGAAGATTGCCGCGATCCGTGACTCGAAGCTACACCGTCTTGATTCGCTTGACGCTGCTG: 4080 a.u.
CTTTCCCGATCTTGCATGGTGGGTGTAGCACATTTGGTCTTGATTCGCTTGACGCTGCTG: 5500 a.u.
GAAGCATGCTGTCCTCACGGGAATTATATTGTGTGAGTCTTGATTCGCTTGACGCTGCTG: 7980 a.u.
AGGTCGCTAAAAATCCACGTTAACGGGACGCTGGTAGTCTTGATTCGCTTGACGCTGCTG: 5320 a.u.
TAGCCCTGTTACTGTCATGTTAGTTATTATCGTTCTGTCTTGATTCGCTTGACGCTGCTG: 4150 a.u.
AAATCATGAGAAGCGCACATGTCGAGATATCAATAGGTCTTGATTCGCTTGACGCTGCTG: 13300 a.u.
CAATACCAGGACCTTTACGTGCAAATTTAGAGCGAAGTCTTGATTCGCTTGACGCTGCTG: 3970 a.u.
CTAACGAAGGTTTGGTTGGTGGGTGACAAGCCAAGTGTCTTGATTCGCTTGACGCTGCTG: 3580 a.u.
ATCATCGAGTGAAGTATCGTGACTCGTACATTTGAAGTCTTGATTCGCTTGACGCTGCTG: 5630 a.u.
CTTCTGTAAATTTGCGTGGTGGGTGGACGCGCCCCGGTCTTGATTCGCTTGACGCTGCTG: 5470 a.u.
AATCGTTAACACCGTCACCTGTCATTGTGCAGAACTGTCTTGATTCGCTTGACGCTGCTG: 5280 a.u.
CGTCCTAGTGATTGTAGCGTGGGTGCCATGAGGAAGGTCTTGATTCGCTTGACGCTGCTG: 8980 a.u.
CTTCTGTAAATTTTTCACGTGCACTGACGCGCCCCGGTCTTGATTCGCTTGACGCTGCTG: 15300 a.u.
CATACCCAACCTTGAGTAGTGGGTGAAGATATTTGTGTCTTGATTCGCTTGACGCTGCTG: 4630 a.u.
GTCTTGTCTCATTGACTTGTGGGTGTCCCCACTTCAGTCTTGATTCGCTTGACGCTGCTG: 6000 a.u.
AGGGCCGGTTGCCGTCACGTGCGGAAAACTATCTCCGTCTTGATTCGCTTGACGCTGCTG: 14300 a.u.
TGTTACACATCGACATACGTGCTTTCATAGAAAGAGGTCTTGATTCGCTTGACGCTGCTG: 7830 a.u.
CGTCCTAGTGATTGTCGTGTGGGTGCCATGAGGAAGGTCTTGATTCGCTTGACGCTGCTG: 7680 a.u.
TTGAGTATTATGGTGGCATACTTTCAAGGGAGCTTGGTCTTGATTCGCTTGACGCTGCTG: 3740 a.u.
CATGCTATGATGCCCACTGTGATATCCAGAGCAAAGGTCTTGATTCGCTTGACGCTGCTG: 4570 a.u.
AGGCCAATGCTGCTAAGCGTGCTAAAGCTAAGGCTCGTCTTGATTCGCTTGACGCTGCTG: 7830 a.u.

Study 4
Target: RNA binding protein fox-1 homolog 2, RRM domain, GST-SBP tag (RBFOX2, Homo sapiens, UniProt O43251-10, residues 100-194)
Method: RNA Bind-n-Seq
Molecule type: RNA
Matrix: in vitro
Tested at: 365 nM
Setting: natural RNA segment, single round, ends assumed
Reference: no-protein control
Direction: higher = stronger binding
Endpoint: RBNS enrichment (R)
Residues (chain): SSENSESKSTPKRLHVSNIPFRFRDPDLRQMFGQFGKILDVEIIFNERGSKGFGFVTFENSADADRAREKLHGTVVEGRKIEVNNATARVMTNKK
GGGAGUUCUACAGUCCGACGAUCAUAUAAUAUCUCAUUUAAUAAGUUUAAUACAUACAAAGAUAAUCUAUAUAUUUUACCAAUUUAAUGUGAAUUUUAAAAAAUCCCUAUGCUAUUUAAAAGAAAGAAAAUGUUGGAAUUCUCGGGUGCCAA: 0.875
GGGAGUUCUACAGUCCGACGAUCUUAAUUAUUCUAACAGUUACCCAUUAACAGUCGACUCCUGUAUUUCUGAGAGUCUUGUACUCACCUCUGAAAUUUAAAAACGUAUAAAGAGAGCCUGGGUUAAUCAGUUCUGGAAUUCUCGGGUGCCAA: 0.586
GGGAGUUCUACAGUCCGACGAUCCACUCCCAGCGAUGCUACCCAGAACCCCAACGGCAUGAAUCCUGCACAGUGCCGGGCAGUGCCAGACUCCAAAGGGCUCGCUGUGGGGACAGCCCCGCCAUGGCCACAGAUGGAAUUCUCGGGUGCCAA: 0.805
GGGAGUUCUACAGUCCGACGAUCCUCUUGAACUUGGGUGGGGAACCCCACCCAAAAGCCCCCUUGUUAGCUCUUUGGCAAUUCUCCUUCCCUCACUCCUCAGGGUGGGGGCUAGAGUAAGCCUGACAUCCUCCUGGAAUUCUCGGGUGCCAA: 0.278
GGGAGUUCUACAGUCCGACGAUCACCAAGAGGUGCUUUUUAAUAAAUGGAUAUUGAAGUUAGGGUGUUACUAAUUUGAUGUAUGGUUUCACAGUCUAGCAUACUGUCCUUUGACAUCUGCCUUUAAGACUUGGUGGAAUUCUCGGGUGCCAA: 0.429
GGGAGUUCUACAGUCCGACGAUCCUGCACUGUGCAGAAGAGCAGAUCCUAGUGCUGCUCUGGCAUUAAUCCCAGGAACCACUAGCAGUAGUGGGGCGCCACCAAUGUAACAUGAGCACAGGUGCCUCAUGGCAUGGAAUUCUCGGGUGCCAA: 0.256
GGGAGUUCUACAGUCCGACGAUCUUAUAUUAAUUGCCAAUAUAAGUAAAUAUAGAUUAUAUAUGUAUAGUGUUUCACAAAGCUUAGACCUUUACCUUCCAGCCACCCCACAGUGCUUGAUAUUUCAGAGUCAGUGGAAUUCUCGGGUGCCAA: 0.754
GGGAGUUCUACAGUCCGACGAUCGAUUUAAGGCCAAGGGCCAGUGGGUGGCAUGGGGUGGCACUAAUCUUGUGUGUUGCUUGGACAUUUGCAAUUCAGAAGAUAAGCUAGAGAGGCUCUUACUAGGGCCCUCAUGGAAUUCUCGGGUGCCAA: 1.37
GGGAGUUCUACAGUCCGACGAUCGCUUACCAGCUCAAGACUUAUCUAACCCUAAAAGCAGGGAAGAACCCGGUGCGGCCUCAGCAGCUUCUGUGGGAACAGAGCCAGUCUGCACGGAGGAGGCUAAGACUCCAUGGAAUUCUCGGGUGCCAA: 0.318
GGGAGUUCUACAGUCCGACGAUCGGCUGUAUGACAUUUUGAGCUCUUAACUGUGAAUGGCAUUCAUUAAGCUCCUUUAUCCUAUAGAUUCUAUCUUUAUGUUCAUCUGAAAUGAACUAUUCAUCAGUACUUUCUGGAAUUCUCGGGUGCCAA: 0.735
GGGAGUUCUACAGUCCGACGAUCGUCCAAGGAACCAAAGGAGGCUCUCGGAGAUGCCCCCAAACGUCCCAAAGUACACAGAGCUAAGUAAUCAAUUGCUACACUUAUUGCACAGCUAGACACGGAUUUCAAGUUGGAAUUCUCGGGUGCCAA: 0.63
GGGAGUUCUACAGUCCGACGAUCCUCCAAGGUGACCUCACAUUUGACUAUCAAAUGAAGUGUUGUGAUUGGGAAGCGUAGAGGCAGGGCCAUGUGCUCAGAACGGUGACAAUAAAGGACUGCCUUUUACUUGUUGGAAUUCUCGGGUGCCAA: 0.358
